Experimental data gathered from unrelated publications.
Compare with care: the assays were run in different laboratories. Values joined by “and” are separate records of one study, mostly repeats; a detail may differ.
Cell line: THP-1

The EC50 of `CN1CC(Oc2cnc(C#N)cc2-c2ccn3nc(NC(=O)C4CC4)cc3c2)C1` is reported as 2910 nM (nuclear translocation, measured: CRTC3; median of experiments).
For `CC1=C(CO)C(=O)O[C@@H]([C@@H](C)[C@H]2CC[C@H]3[C@@H]4C[C@H]5O[C@]56[C@@H](O)C=CC(=O)[C@]6(C)[C@H]4CC[C@]23C)C1`, the IC50 was 208 nM (IL-1β secretion, inhibitor, measured: IL-1β; together with: LPS and ATP).
With `O=C(O)c1ccc(CN2CCC(CN[C@@H]3C[C@H]3c3ccccc3)CC2)cc1` the EC50 was 31.2 nM (differentiation, flow cytometry, measured: CD11b; 96 h).
`CC1(C)S[C@@H]2[C@H](NC(=O)[C@H](NC(=O)N3CCNC3=O)c3ccccc3)C(=O)N2[C@H]1C(=O)O` gave an inhibition of 28.9% (pyroptotic LDH release; 2 µM, 40 min, together with: LPS then nigericin).
The IC50 of `O=C1/C(=C/c2ccccc2)C(NC2CCCCC2)c2ccccc21` (centres unmarked) is reported as 923 nM (IL-1β secretion, inhibitor, reporter, HEK-Blue, IL-1β; together with: LPS and ATP).
`COc1ccc(-c2c(-c3ccc(C#N)c(F)c3)nc(N3CCC(N)CC3)n(C)c2=O)cc1F` has an EC50 of 2.34 nM (differentiation, flow cytometry, measured: CD11b; 96 h).
`N#Cc1ccc2c(CN3CCOCC3)cc(-c3ccc([C@H]4CCC(=O)N4)cc3)nc2c1` — result for mRNA level: “decreased” (decreased, measured: TNF; 10 µM, together with: CML-HSA; baseline: vehicle).
`CC(=O)[C@H]1CC[C@H]2[C@@H]3CCC4=CC(=O)CC[C@]4(C)[C@H]3CC[C@]12C` has an inhibition of -5.51% (pyroptotic LDH release; 2 µM, 40 min, together with: LPS then nigericin).
`C=CC(=O)N1CC/C(=C\c2ccc(F)c([N+](=O)[O-])c2)C(=O)/C(=C/c2ccc(F)c([N+](=O)[O-])c2)C1` has an IC50 of 72 nM (pyroptotic cell death, inhibitor, CellTiter-Glo; together with: LPS priming and nigericin).
`Cc1occc(=O)c1O` gave an inhibition of -6.26% (pyroptotic LDH release; 2 µM, 40 min, together with: LPS then nigericin).
`C/C(=N\NC(=O)c1cccc(S(=O)(=O)N2CCN(C)CC2)c1)c1cc(Cl)ccc1O` has an EC50 of over 2000 nM (differentiation, flow cytometry, measured: CD11b; 96 h).
For `C[C@@H](O)[C@H](NC(=O)[C@H](CCCNC(=N)N)NC(=O)[C@H](CC(N)=O)NC(=O)[C@H](CC(N)=O)NC(=O)[C@@H](N)CCCNC(=N)N)C(=O)N[C@@H](CO)C(=O)NCC(=O)N[C@@H](Cc1ccccc1)C(=O)N[C@@H](CCCCN)C(=O)N[C@@H](Cc1c[nH]c2ccccc12)C(=O)O`, “active β-catenin level” read 1.4 (Western blot; 0.5 µM, 3 days, unit not given, together with: WNT3A; baseline: WNT3A alone).
The EC50 of `COc1cnc2cccc(N3CCc4c(cc(Cn5ccnc5C)cc4-c4cn(C)nc4C(F)(F)F)C3=O)c2c1` is reported as over 30000 nM (cell growth, inhibitor; 120 h).
The maximum protection of `COC(=O)/C=C/C(=O)OCCN1C(=O)CCC1=O` is reported as 71.3% (pyroptotic cell death, CellTiter-Glo; together with: LPS priming and nigericin).
`Clc1ccc(CCC(Cn2ccnc2)Sc2c(Cl)cccc2Cl)cc1` (centres unmarked) has an inhibition of 36% (pyroptotic LDH release; 2 µM, 40 min, together with: LPS then nigericin).
With `C[C@H]1[C@@H](O)O[C@@H]2O[C@@]3(C)CC[C@H]4[C@H](C)CC[C@@H]1[C@@]24OO3` the necrotic cells was 0.1% (annexin V/PI flow cytometry, measured: annexin V-/PI+; 0.2 µM, 24 h).
The inhibition of `CCOC(=O)N1c2ccc(C(F)(F)F)cc2[C@@H](N(Cc2cc(C(F)(F)F)cc(C(F)(F)F)c2)C(=O)OC)C[C@H]1CC` is reported as 29.3% (pyroptotic LDH release; 2 µM, 40 min, together with: LPS then nigericin).
`CC1(C)CC[C@]2(NC(=O)C(C)(F)F)CC[C@]3(C)[C@H](C(=O)C=C4[C@@]5(C)C=C(C#N)C(=O)C(C)(C)[C@@H]5CC[C@]43C)[C@@H]2C1` gave an IC50 of 167 nM (pyroptotic cell death, inhibitor, CellTiter-Glo; together with: LPS priming and nigericin).
For `CC(C)c1cc(C(C)C)c(CC(=O)NS(=O)(=O)Oc2c(C(C)C)cccc2C(C)C)c(C(C)C)c1`, the inhibition was 22.2% (pyroptotic LDH release; 2 µM, 40 min, together with: LPS then nigericin).
`C[C@H](NC(=O)C(=O)Nc1ccccc1C(C)(C)C)C(=O)N[C@@H](CC(=O)O)C(=O)COc1c(F)c(F)cc(F)c1F` gave a viability of 41.3% and 32.6% (inhibitor, CellTiter-Glo; 10 µM, together with: staurosporine 1 µM).
